Published values from different studies.
“And” joins repeats or separate records; there may be more than shown. ± marks the error that the study gave.

Amino acid sequences for entries named in this document (tags omitted). A change or cut given only in a name is not applied to a line headed by its entry. Chains listed by the source or under a name are the forms on record and can include a tag or linker. Residues count along the entry.
UniProt P08253, whole entry, looked up: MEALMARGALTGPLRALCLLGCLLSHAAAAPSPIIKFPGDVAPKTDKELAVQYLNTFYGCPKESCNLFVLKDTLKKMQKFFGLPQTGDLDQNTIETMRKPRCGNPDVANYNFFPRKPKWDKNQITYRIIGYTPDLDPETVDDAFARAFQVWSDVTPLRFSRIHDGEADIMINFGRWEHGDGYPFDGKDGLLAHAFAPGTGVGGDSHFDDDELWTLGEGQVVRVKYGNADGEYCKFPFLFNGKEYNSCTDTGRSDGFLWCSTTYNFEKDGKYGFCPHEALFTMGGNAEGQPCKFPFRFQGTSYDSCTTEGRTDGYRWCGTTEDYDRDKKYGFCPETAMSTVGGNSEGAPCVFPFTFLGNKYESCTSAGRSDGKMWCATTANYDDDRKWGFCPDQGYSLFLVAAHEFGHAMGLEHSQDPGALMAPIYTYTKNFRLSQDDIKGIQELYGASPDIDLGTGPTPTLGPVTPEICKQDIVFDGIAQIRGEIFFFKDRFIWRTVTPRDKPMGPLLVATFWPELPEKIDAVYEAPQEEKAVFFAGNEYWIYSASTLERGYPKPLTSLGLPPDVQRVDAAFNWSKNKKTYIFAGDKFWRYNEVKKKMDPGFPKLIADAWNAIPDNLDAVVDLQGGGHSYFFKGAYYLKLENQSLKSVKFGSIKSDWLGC
UniProt A0A024B7W1, with tags, fused parts or gaps with the stated changes limits assumed: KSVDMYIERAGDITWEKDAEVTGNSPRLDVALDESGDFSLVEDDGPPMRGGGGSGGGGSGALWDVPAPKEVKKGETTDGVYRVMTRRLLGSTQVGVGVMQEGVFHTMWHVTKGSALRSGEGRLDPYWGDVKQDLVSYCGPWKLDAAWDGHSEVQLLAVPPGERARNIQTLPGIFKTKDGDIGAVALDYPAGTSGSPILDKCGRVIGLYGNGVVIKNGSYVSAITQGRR
UniProt P41595, whole entry: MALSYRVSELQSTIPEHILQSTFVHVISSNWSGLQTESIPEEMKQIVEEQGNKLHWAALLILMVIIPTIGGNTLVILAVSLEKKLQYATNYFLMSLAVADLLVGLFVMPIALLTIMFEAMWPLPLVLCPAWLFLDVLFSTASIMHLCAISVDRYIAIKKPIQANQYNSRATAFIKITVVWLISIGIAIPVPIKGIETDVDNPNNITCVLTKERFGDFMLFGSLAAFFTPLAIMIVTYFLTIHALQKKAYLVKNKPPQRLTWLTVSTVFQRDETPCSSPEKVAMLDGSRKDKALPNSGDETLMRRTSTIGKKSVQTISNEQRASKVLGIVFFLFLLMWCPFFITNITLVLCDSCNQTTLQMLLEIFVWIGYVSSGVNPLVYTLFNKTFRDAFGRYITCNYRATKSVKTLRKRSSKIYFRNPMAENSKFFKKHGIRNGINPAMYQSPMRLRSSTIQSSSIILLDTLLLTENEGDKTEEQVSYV
UniProt Q00960, 27-1482 limits assumed: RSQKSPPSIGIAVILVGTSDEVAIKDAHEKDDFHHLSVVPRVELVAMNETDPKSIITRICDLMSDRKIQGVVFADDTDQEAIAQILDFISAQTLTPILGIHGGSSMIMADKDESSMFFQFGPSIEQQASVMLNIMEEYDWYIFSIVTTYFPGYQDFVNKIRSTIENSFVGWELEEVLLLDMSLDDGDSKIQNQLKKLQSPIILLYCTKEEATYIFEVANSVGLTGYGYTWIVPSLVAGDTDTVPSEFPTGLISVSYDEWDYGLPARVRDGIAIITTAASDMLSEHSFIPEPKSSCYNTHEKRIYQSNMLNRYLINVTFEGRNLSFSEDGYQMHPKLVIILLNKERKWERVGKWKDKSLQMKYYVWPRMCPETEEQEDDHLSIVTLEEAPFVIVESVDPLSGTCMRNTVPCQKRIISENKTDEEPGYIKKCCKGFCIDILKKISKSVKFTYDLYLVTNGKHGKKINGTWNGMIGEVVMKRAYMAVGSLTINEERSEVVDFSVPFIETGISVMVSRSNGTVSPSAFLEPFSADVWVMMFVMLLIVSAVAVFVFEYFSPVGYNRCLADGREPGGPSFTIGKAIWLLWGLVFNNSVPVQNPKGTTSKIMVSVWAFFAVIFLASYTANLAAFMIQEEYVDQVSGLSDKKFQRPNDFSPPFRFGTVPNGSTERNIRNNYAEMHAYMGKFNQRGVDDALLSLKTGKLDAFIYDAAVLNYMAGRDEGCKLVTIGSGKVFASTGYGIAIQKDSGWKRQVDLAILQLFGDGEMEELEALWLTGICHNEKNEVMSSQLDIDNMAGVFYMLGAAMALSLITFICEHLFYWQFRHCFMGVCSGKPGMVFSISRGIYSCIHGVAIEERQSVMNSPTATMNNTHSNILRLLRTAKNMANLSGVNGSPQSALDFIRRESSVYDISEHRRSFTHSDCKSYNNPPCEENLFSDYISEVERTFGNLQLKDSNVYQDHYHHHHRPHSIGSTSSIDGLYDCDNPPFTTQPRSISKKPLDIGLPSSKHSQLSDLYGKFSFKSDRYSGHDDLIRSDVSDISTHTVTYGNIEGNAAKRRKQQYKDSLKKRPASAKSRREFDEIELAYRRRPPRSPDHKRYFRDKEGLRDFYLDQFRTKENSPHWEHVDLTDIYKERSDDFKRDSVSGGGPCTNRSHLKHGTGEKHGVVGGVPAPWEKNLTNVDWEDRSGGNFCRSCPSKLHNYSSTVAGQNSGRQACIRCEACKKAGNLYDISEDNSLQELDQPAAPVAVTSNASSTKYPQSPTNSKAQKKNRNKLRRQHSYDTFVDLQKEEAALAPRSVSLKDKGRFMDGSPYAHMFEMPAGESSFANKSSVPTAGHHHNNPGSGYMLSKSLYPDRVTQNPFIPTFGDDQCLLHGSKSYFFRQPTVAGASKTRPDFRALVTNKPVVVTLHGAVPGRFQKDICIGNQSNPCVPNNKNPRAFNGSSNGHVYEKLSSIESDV
UniProt Q9Y251, whole entry, looked up: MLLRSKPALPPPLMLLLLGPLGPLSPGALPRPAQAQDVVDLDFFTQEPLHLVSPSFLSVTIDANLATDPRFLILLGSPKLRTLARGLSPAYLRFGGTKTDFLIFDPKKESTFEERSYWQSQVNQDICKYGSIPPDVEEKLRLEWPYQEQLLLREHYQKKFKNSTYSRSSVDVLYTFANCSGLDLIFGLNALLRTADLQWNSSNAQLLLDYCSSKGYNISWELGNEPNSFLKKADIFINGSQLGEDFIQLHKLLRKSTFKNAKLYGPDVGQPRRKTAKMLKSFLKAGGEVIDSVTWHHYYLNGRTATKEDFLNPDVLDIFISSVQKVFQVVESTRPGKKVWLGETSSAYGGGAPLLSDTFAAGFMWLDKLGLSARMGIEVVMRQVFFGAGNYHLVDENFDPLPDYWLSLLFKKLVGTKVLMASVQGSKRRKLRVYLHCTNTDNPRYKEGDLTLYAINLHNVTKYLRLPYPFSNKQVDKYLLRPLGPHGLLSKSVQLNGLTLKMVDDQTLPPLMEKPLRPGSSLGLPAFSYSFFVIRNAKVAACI
UniProt P05804, whole entry: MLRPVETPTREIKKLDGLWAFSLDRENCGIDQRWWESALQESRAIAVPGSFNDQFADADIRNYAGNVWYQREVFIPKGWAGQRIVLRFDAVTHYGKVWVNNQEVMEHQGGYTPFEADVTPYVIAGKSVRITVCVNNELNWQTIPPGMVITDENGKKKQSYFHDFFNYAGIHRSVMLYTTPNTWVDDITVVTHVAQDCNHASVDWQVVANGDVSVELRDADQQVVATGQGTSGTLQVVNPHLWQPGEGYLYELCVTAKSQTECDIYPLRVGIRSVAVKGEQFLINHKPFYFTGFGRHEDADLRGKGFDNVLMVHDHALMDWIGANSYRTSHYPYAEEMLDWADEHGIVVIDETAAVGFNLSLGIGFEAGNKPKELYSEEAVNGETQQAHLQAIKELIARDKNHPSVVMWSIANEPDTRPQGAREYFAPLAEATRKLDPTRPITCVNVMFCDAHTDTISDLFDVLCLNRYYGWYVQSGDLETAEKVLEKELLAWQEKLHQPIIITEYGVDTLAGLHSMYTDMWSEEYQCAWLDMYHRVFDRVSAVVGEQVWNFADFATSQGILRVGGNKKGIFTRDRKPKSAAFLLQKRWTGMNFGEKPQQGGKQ
UniProt Q9Y253, 1-437 limits assumed: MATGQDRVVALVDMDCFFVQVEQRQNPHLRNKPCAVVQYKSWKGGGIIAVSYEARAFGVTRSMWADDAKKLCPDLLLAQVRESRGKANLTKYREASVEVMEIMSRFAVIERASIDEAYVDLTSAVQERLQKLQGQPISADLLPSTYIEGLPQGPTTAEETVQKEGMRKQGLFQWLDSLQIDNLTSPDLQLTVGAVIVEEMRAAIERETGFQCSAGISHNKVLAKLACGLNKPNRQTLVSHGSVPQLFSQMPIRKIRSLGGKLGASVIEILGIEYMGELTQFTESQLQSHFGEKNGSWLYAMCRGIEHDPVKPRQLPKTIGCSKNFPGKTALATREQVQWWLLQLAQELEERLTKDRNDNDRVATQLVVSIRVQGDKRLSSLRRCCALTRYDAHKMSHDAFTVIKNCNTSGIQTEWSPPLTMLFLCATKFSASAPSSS
UniProt Q8E0N2, whole entry: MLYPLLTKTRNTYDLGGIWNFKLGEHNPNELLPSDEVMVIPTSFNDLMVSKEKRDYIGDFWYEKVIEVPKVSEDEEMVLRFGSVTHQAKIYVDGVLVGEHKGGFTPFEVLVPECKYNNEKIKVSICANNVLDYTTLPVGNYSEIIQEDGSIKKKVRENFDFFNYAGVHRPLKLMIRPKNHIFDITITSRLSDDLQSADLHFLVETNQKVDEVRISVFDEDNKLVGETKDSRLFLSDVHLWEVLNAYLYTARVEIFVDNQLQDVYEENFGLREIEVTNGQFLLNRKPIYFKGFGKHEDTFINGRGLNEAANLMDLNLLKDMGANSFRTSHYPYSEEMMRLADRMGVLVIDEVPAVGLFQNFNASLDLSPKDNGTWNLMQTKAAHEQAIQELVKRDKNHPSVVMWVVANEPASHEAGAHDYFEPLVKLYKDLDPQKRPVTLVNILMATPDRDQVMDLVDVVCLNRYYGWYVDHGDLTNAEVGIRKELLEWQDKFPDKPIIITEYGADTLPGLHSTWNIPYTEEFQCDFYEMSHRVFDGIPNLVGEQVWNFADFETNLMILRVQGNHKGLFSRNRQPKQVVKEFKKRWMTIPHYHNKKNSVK
UniProt P29704, 1-420 limits assumed: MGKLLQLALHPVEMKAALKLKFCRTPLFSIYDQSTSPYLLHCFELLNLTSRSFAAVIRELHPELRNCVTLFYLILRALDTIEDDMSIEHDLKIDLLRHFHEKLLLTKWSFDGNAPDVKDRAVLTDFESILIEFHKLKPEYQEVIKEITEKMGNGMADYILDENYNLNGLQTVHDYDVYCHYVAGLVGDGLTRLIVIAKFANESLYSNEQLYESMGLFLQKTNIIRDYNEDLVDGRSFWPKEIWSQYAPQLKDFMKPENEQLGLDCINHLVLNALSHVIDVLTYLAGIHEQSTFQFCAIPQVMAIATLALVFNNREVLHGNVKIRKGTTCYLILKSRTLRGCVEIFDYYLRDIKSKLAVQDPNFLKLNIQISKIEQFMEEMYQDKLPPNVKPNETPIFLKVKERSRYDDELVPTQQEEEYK

Structure (SMILES) = O=c1ccn([C@@H]2O[C@H](COP(=O)(O)OP(=O)(O)OP(=O)(O)O)[C@@H](O)[C@]2(F)Br)c(=O)[nH]1; target or system = POLG (Homo sapiens, UniProt P54098); assay = polymerase activity, inhibitor; setting = 37 °C; quantity = IC50; value = > 100 µM
Structure (SMILES) = Cc1cc(S(=O)(=O)NC(C(=O)NO)C2CCOCC2)ccc1F (racemic); target or system = MMP2 (Homo sapiens, UniProt P08253); assay = enzyme activity, fluorogenic peptide cleavage; quantity = IC50; value = 4.4 µM
Structure (SMILES) = C[C@H](CS)C(=O)N[C@H](Cc1c[nH]c2ccccc12)C(=O)O; target or system = Klebsiella pneumoniae; system = VIM-1 producing; setting = 50 µM, together with: meropenem; quantity = MIC of meropenem; value = 0.5 µg/mL
Structure (SMILES) = NCc1ccc(-c2ncc(NCC3CCNCC3)nc2-c2ccc(-c3ccoc3)cc2)cc1; target or system = Genome polyprotein, NS2B-NS3 protease (ZIKV, UniProt A0A024B7W1); assay = enzyme activity, inhibitor; setting = Gly4-Ser-Gly4-linked NS2B-NS3 protease; quantity = IC50; value = 0.4 ± 0.05 µM
Structure (SMILES) = COc1ccc(CN[C@@H]2CO[C@H](C(c3ccccc3)c3ccccc3)C[C@H]2O)cc1; target or system = HTR2B (Homo sapiens, UniProt P41595); assay = radioligand binding; setting = 10 µM, together with: [3H]LSD; quantity = inhibition; value = 46.3%
Structure (SMILES) = C=C[C@@H](Nc1ccccc1)C12C=CC(O1)C(C(=O)OC)=C2C(=O)OC (stereo partly drawn); target or system = SUMO-activating enzyme subunit 2, with SAE1 (Homo sapiens, UniProt Q9UBT2); assay = SUMOylation, inhibitor, AlphaScreen; setting = together with: SUMO1-RanGAP1 conjugation; quantity = IC50; value = 7.18 µM
Structure (SMILES) = NCCNCCSc1ccccc1; system = n-octanol/phosphate buffer; setting = 25 µg/mL, pH 7.4; quantity = partition coefficient; value = 0.24 ± 0.02
Structure (SMILES) = N=C(N)c1ccc(NCCOCCNc2ccc(C(=N)N)cc2)cc1; target or system = Glutamate NMDA receptor; Grin1/Grin2b, ifenprodil binding site (Grin1/Grin2b, Rattus norvegicus, UniProt P35439+Q00960); setting = pH 7.4; quantity = IC50; value = 11.4 ± 3.7 µM
Structure (SMILES) = O=C(Nc1ccc(-c2ccccc2)cc1)[C@H]1O[C@H](O[C@H]2[C@H](O[C@@H]3O[C@H](C(=O)Nc4ccc(-c5ccccc5)cc4)[C@@H](O[C@H]4O[C@@H](CNS(=O)(=O)O)[C@@H](O)[C@H](O)[C@H]4NS(=O)(=O)O)[C@H]3O)[C@@H](O)[C@H](NS(=O)(=O)O)C[C@@H]2NS(=O)(=O)O)[C@H](NS(=O)(=O)O)[C@@H](O)[C@@H]1O; target or system = Heparanase (HPSE, Homo sapiens, UniProt Q9Y251); assay = enzyme activity, inhibitor, TR-FRET; quantity = IC50; value = 2.61 ± 0.41 µM
Structure (SMILES) = [11CH3]Nc1ccc(C(=O)C2CCN(C3Cc4ccccc4CC3O)CC2)cc1 (single isomer, unassigned); system = Sprague-Dawley rat, striatum; setting = 30 min; quantity = uptake; value = 0.593 %ID/g
Structure (SMILES) = OCCNc1nc(N2CCNCC2)c2sc3nc(-c4ccccc4)ccc3c2n1; target or system = Beta-glucuronidase (uidA, Escherichia coli, UniProt P05804); assay = enzyme activity, inhibitor; quantity = IC50; value = 0.041 ± 0.009 µM
Structure (SMILES) = O=C1NC(=S)NC(=O)C1=Cc1cn(C(=O)c2ccc3ccccc3c2)c2ccc(Cl)cc12; target or system = DNA polymerase eta (POLH, Homo sapiens, UniProt Q9Y253); assay = strand-displacement synthesis, inhibitor, fluorescence; setting = together with: 0.1 mM dTTP; quantity = IC50; value = 17 µM and 16.6 µM
Structure (SMILES) = CC(C)C[C@@H](NC(=O)[C@H](NC(=O)[C@H]1CCCN1)[C@H](C)O)C(=O)N[C@H](Cc1c[nH]cn1)C(=O)N[C@@H](C(=O)N[C@H](Cc1c[nH]cn1)C(=O)N[C@H](CC(N)=O)C(=O)N[C@H](CCCNC(=N)N)C(=O)N[C@H](CCCNC(=N)N)C(=O)N[C@H](CCCNC(=N)N)C(=O)N[C@H](CCCNC(=N)N)C(=O)N[C@H](CCCNC(=N)N)C(N)=O)[C@H](C)O; assay = phase I single ascending dose; system = healthy male subjects; setting = 36 mg, total events; quantity = incidence of adverse events; value = 66.7%
Structure (SMILES) = CNc1nc(N2CCNCC2)c2sc3nc(N4CCOCC4)ccc3c2n1; target or system = Beta-glucuronidase (Streptococcus agalactiae serotype V, UniProt Q8E0N2); assay = enzyme activity, inhibitor; quantity = IC50; value = 0.4 ± 0.07 µM
Structure (SMILES) = CC(C)=CCC/C(C)=C/CCCCN1[C@@H](COP(=O)(O)OP(=O)(O)O)[C@]1(C)CC/C=C(\C)CCC=C(C)C (relative stereo); target or system = Squalene synthase ERG9 (Saccharomyces cerevisiae, UniProt P29704); assay = enzyme activity, inhibitor; setting = pH 7.2, together with: 1.5 mM pyrophosphate, 100 µM [3H]FPP; quantity = IC50; value = 1.9 ± 0.2 µM

Excerpt of the above:
Structure (SMILES) = O=C(Nc1ccc(-c2ccccc2)cc1)[C@H]1O[C@H](O[C@H]2[C@H](O[C@@H]3O[C@H](C(=O)Nc4ccc(-c5ccccc5)cc4)[C@@H](O[C@H]4O[C@@H](CNS(=O)(=O)O)[C@@H](O)[C@H](O)[C@H]4NS(=O)(=O)O)[C@H]3O)[C@@H](O)[C@H](NS(=O)(=O)O)C[C@@H]2NS(=O)(=O)O)[C@H](NS(=O)(=O)O)[C@@H](O)[C@@H]1O; target or system = Heparanase (HPSE, Homo sapiens, UniProt Q9Y251); assay = enzyme activity, inhibitor, TR-FRET; quantity = IC50; value = 2.61 ± 0.41 µM
Structure (SMILES) = [11CH3]Nc1ccc(C(=O)C2CCN(C3Cc4ccccc4CC3O)CC2)cc1 (single isomer, unassigned); system = Sprague-Dawley rat, striatum; setting = 30 min; quantity = uptake; value = 0.593 %ID/g
